Measurements gathered from unrelated publications.
A part holds a random share of what one study measured. Substitutions count along the parent as printed.

Study 1
Target: Sal-like protein 4, full length isoform B (SALL4, Homo sapiens, UniProt Q9UJQ4-2, residues 1-616)
Method: universal PBM
Molecule type: double-stranded DNA, one strand shown
Matrix: in vitro
Concentration: not given
Setting: 8-mer, flanks averaged, mean of replicates
Direction: higher = stronger binding
Residues (chain): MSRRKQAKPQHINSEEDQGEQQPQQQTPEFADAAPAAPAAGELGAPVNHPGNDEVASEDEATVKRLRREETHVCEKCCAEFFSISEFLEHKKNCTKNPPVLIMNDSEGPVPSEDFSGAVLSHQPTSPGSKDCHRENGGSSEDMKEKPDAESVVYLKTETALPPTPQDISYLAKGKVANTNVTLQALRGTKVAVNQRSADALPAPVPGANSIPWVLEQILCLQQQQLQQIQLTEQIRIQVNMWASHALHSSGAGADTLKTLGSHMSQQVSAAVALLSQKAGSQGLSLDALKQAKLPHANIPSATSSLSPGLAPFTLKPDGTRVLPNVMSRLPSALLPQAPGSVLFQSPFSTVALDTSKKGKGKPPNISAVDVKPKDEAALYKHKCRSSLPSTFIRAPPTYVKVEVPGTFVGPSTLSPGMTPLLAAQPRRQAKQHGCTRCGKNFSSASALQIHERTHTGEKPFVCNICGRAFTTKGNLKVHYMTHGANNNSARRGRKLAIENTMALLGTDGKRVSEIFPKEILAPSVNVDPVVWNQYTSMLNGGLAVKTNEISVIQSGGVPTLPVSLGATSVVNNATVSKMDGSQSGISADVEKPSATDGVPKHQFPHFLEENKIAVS
Sequence | E-score
CCACACAG | -0.0771
ATCCCGGG | -0.252
GGTACGAA | 0.061
ACAACTCT | 0.0784
CCTAGCTC | -0.303
AGCAACGG | -0.113
ACACGCTC | -0.0229
CAGGTCAC | -0.346

Study 2
Variant: F5K
Target: ABI1, truncated, D143A, DHFR fusion (Arabidopsis thaliana)
Method: DHFR PCA, deep sequencing
Matrix: yeast
Setting: methotrexate growth selection, single substitutions
Reference: wild-type fitted maximum
Direction: higher = stronger binding
Parent: PYL1, truncated, DHFR fusion (Arabidopsis thaliana); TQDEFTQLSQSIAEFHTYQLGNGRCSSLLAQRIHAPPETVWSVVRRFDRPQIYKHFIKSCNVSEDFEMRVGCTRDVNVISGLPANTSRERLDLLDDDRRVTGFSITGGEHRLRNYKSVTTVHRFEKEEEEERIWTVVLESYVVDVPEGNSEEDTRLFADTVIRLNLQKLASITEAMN; partner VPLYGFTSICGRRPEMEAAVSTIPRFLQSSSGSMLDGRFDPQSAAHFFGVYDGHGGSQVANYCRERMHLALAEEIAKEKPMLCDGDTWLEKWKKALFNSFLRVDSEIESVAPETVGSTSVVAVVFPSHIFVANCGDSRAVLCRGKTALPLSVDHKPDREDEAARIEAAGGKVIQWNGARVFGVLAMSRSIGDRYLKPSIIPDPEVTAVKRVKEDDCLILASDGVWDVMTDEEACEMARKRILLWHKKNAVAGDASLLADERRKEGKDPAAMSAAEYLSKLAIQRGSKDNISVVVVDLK
conditions | relative binding score [%]
with: (+)-ABA 0.11 µM | 4.99
with: (+)-ABA 1.4 µM | 9.32
with: (+)-ABA 58 µM | 92.9
with: (+)-ABA 17 µM | 68.8
with: (+)-ABA 0.0091 µM | 7.2
with: (+)-ABA 200 µM | 91.2

Study 3
Target: UBE2U UBC core domain (UniProt Q5VVX9)
Method: yeast two-hybrid
Matrix: yeast
Setting: mostly zero background
Reference: not given
Direction: higher = stronger interaction
B1: TRIM69 RING domain (UniProt Q86WT6); chain VIQDITMELHCPLCNDWFRDPLMLSCGHNFCEACIQDFWRLQAKETFCPECKMLCQYNNCTF
B2: CUL9 RING domain (UniProt Q8IWT3); chain AQAVPVRPDHCPVCVSPLGCDDDLPSLCCMHYCCKSCWNEYLTTRIEQNLVLNCTCPIADCPAQPTGAFIR
Residues (chain): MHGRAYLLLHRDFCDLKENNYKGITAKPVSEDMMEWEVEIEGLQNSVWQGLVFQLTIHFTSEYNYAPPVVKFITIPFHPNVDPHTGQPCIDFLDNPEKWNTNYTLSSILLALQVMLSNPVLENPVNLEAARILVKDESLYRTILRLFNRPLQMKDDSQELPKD
Sequence | lacZ reporter activity
QLRRLQEERTCKVCMDKEVSIVFIPCGHLVVCKDCAPSLRKCPICRSTIKGTVRTF (BIRC3 RING domain (UniProt Q13489)) | 11800
VTLSLTLPITCHICLGKVRQPVICINNHVFCSICIDLWLKNNSQCPACRVPITPENPCK (OBI1 RING domain (UniProt Q5W0B1)) | 4720
FASPPDSNFVCSVCHGVLKRPARLPCSHIFCKKCILRWLARQKTCPCCRKEVKRKKVVH (RNF151 RING domain (UniProt Q2KHN1)) | 0
B1 (TRIM69 RING domain) | 0
B2 (CUL9 RING domain) | 0
YWAMDSTFELCKICAESNKDVKIEPCGHLLCSCCLAAWQHSDSQTCPFCRCEIKGWEAVS (CBLC RING domain (UniProt Q9ULV8)) | 0
KTLSRFGIQPCSICLGDAKDPVCLPCDHVHCLRCLRAWFASEQMICPYCLTALPDEFSPA (RNF213 RING domain (UniProt Q63HN8)) | 0
EDEVSDNSAECVVCLSDVRDTLILPCRHLCLCNTCADTLRYQANNCPICRLPFRALLQIR (RNF157 RING domain (UniProt Q96PX1)) | 2090

Single results of other studies
Parent: viral docking peptide; YKVKRRLVFGADD; partner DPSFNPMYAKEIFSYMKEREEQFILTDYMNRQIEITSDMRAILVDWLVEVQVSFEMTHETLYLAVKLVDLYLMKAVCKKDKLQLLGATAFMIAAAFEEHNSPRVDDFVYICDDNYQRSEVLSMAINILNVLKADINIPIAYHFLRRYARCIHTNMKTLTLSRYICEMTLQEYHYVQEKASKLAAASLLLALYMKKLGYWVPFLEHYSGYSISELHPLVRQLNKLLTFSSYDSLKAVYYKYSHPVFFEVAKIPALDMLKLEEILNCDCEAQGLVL
Variant | target | test | test system | conditions | scale | quantity | result
YKVKRRLVFGCDD [A11C] | CCNB3, cyclin fold, Cln2 fusion (human) | yeast growth competition, sequencing | yeast | strong parent motif | reference: not given, higher = stronger binding | normalised enrichment score | 1.74

Some of these lines once more (study 3):
Sequence | lacZ reporter activity
FASPPDSNFVCSVCHGVLKRPARLPCSHIFCKKCILRWLARQKTCPCCRKEVKRKKVVH (RNF151 RING domain (UniProt Q2KHN1)) | 0
YWAMDSTFELCKICAESNKDVKIEPCGHLLCSCCLAAWQHSDSQTCPFCRCEIKGWEAVS (CBLC RING domain (UniProt Q9ULV8)) | 0
KTLSRFGIQPCSICLGDAKDPVCLPCDHVHCLRCLRAWFASEQMICPYCLTALPDEFSPA (RNF213 RING domain (UniProt Q63HN8)) | 0
